Assay results of several laboratories.
Parts stem from different laboratories: compare values within a part only.

Series 1
Target: Histone acetyltransferase KAT6A, both winged helices, GST fusion (KAT6A, Homo sapiens, UniProt Q92794, residues 1-181)
Method: protein binding microarray
Molecule type: double-stranded DNA, one strand shown
Medium: in vitro
Tested at: not given
Notes: 8-mer, flanks averaged, mean of 2 arrays, mostly near background
Baseline: not given
Reading: higher = stronger binding
Residues (chain): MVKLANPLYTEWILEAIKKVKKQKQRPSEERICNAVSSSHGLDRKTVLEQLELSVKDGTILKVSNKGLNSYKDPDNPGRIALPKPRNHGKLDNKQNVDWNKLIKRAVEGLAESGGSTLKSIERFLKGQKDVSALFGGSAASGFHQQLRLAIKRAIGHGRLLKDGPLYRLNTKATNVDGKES
For `CACGCTTC`, the E-score was 0.187.
The E-score of `CACACTTA` is reported as -0.197.
For `TGATCCCA`, the E-score was -0.169.
For `CCCAACCG`, the E-score was -0.0202.
For `CGGCTCTA`, the E-score was 0.244.
`GGCGGATA` gave an E-score of 0.232.
For `CTGCACAA`, the E-score was -0.0628.
`CATATACG` gave an E-score of 0.0276.

Series 2
Organism: SARS-CoV-2
Read-out: cytopathic effect
Cells: Vero E6
Tested at: 10 µM
`COc1ccc([N+](=O)[O-])c(S(=O)(=O)c2ccc(Cl)cc2)n1` has an inhibition of -42.3%.
For `O=C(O)c1cc(N2N=C(C(F)(F)F)/C(=C/c3ccc(-c4ccccc4)o3)C2=O)ccc1Cl`, the inhibition was 3.6%.
`CC(=O)[O][Pt]([NH2])([Cl])([Cl])([NH]C1CCCCC1)[O]C(C)=O` gave an inhibition of -17.4%.
For `O=[N+]([O-])c1ccc(Sc2cccc[n+]2[O-])c2nonc12`, the inhibition was -17.5%.

Series 3
Target: Fragile X messenger ribonucleoprotein 1, C-terminal low-complexity region (Fmr1, Mus musculus, UniProt P35922)
Method: RNA Bind-n-Seq
Molecule type: RNA
Medium: in vitro
Tested at: 200 nM
Notes: whole 134-nt RNA, ends assumed
Together with: 150 mM KCl
Baseline: input library
Reading: higher = stronger binding
The log2 enrichment of `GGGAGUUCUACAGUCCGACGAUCAUGUUCUUGAAUACUUAGCAAACAUACCAGCAUCCCAAAGUCACCAAGAUAAACCCUCCUACUCCAACAUCACAUGAUCUUCUAAUUCUAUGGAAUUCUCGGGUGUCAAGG` is reported as 0.132.
`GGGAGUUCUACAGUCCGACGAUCAAGUCCUGUGCUACACAUCGUAUGUACCGAAUCGGGUUUUGGGUUUUGGGUUUUGGAAAGUAUUAUGUUACGCCGUUCGGAUCUGCACUUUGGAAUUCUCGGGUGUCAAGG` gave a log2 enrichment of -0.381.
`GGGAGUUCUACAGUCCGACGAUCUGUUUAUCCAACAUAUGAUUUUGCCUGCCCCAUAGUUGACAGCAUCGAAGGUGUUACACAUGCCCUGAGAACAACAGAAUACCAUGACAGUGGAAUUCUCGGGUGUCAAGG` has a log2 enrichment of 0.222.
With `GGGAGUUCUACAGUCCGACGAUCUCCUGUGCUACACAUCGUAUGUACCGAAUCGGGGUGGGGUUUUUGGGGAAAAAAAGGGGAAAGUAUUAUGUUACGCCGUUCGGAUCUGCAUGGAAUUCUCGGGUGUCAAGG` the log2 enrichment was 0.782.
`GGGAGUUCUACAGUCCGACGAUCACCAUGCAGGUGGGCAUCUUUGGGAAGUGGGGCAAGGGGGGGAUAGGGAGGGGGGUAAUACUUUGGGAACAGGUGGUCCCAGGUCGUUUCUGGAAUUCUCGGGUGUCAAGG` has a log2 enrichment of 0.686.
`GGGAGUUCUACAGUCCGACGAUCAAGUCCUGUGCUACACAUCGUAUGUACCGAAUCGGGUUUUUUUGGGAAAGGGUGGGAAAGUAUUAUGUUACGCCGUUCGGAUCUGCACUUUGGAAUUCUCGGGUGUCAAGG` has a log2 enrichment of 0.833.

Series 4
Target: Sal-like protein 4, full length isoform B (SALL4, Homo sapiens, UniProt Q9UJQ4-2, residues 1-616)
Method: universal PBM
Molecule type: double-stranded DNA, one strand shown
Medium: in vitro
Tested at: not given
Notes: 8-mer, flanks averaged, mean of replicates
Reading: higher = stronger binding
Target sequence (chain): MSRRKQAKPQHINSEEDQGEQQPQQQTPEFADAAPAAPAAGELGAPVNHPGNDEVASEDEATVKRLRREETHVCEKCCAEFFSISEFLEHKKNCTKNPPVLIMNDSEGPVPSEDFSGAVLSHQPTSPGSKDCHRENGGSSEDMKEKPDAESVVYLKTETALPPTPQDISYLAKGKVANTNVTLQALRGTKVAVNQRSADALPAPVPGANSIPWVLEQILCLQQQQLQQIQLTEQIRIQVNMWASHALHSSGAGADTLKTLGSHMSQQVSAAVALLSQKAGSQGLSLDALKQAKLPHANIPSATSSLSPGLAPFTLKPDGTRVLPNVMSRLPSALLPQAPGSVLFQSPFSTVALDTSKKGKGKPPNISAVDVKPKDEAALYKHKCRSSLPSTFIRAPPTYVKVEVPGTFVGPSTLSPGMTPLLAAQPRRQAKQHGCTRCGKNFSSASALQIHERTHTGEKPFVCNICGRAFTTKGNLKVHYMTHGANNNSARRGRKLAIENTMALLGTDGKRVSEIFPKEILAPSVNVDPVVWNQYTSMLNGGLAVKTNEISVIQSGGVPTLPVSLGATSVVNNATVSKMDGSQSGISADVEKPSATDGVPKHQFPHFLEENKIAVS
The E-score of `ACTACCTG` is reported as -0.123.
`CAGGAACA` has an E-score of 0.0883.
For `AGCAAATA`, the E-score was 0.267.
With `AGTCATGA` the E-score was 0.0981.
`CGACATTA` gave an E-score of 0.157.
`CAACCTCG` gave an E-score of -0.0786.
With `GACTACCC` the E-score was -0.264.
The E-score of `CAATATTG` is reported as 0.391.

Series 5
Target: Replicase polyprotein 1ab, polymerase (rep, Severe acute respiratory syndrome coronavirus 2, UniProt P0DTD1)
Read-out: enzyme activity
Action: inhibitor
Tested at: 20 µM
`O=C1c2ccccc2C(=O)c2ccccc21` has an inhibition of -2.04%.
With `C=CCN1CC[C@]23CCCC[C@H]2[C@H]1Cc1ccc(O)cc13` the inhibition was -1.98%.
The inhibition of `CC[C@H](Nc1ncnc2[nH]cnc12)c1nc2cccc(F)c2c(=O)n1-c1ccccc1` is reported as -0.5%.
With `CCc1c2c(nc3ccc(OC(=O)N4CCC(N5CCCCC5)CC4)cc13)-c1cc3c(c(=O)n1C2)COC(=O)[C@]3(O)CC` the inhibition was 14.6%.
For `CN1C[C@H](C(=O)N[C@]2(C)O[C@@]3(O)[C@@H]4CCCN4C(=O)[C@H](Cc4ccccc4)N3C2=O)C[C@@H]2c3cccc4[nH]cc(c34)C[C@H]21`, the inhibition was 2.79%.
For `COc1ccc(Cl)cc1NC(=O)Nc1cc(C)nc2ccccc12`, the inhibition was 4%.
For `CC1/C=C/C=C/C=C/C=C/C=C/C=C/C=C/C(OC2O[C@H](C)[C@@H](O)[C@H](N)[C@@H]2O)CC(O)C(C(=O)O)C(O)CC(=O)CC(O)CC(O)CC(O)CC(=O)CCCC(=O)CC(=O)OC1C(C)CC(C)C(O)CC(=O)c1ccc(N)cc1` (stereo partly shown), the inhibition was 54.8%.
The inhibition of `Fc1ccc(-c2nc(-c3c(F)cccc3F)[nH]c2-c2ccncc2)cc1` is reported as 7.79%.
The inhibition of `O=C(O)c1cc(O)c2ccc(Cl)cc2n1` is reported as 4.7%.
`C=Cc1cc(O)cc2nc(-c3ccc(O)c(F)c3)oc12` gave an inhibition of 6.89%.
`Cn1cc(-c2ccc3nnc(Sc4ccc5ncccc5c4)n3n2)cn1` has an inhibition of 0.68%.
For `C[C@H](Cc1cc2c(c(C(N)=O)c1)N(CCCO)CC2)NCCOc1ccccc1OCC(F)(F)F`, the inhibition was 0.1%.
With `O=C(O)COc1cccc(CN(Cc2ccc(-n3cccn3)cc2)S(=O)(=O)c2cccnc2)c1` the inhibition was 2.24%.
`O=C(O)/C=C1\CCCc2ccccc2C1O` (stereo not shown) has an inhibition of -1.1%.
`O=C(O)C[C@H](O)C[C@H](O)/C=C/c1c(C2CC2)nc2ccccc2c1-c1ccc(F)cc1` gave an inhibition of -1.99%.
The inhibition of `O=C(CCCCCCC(=O)Nc1cccnc1)NO` is reported as -4.21%.
`C[C@]12CCC(=O)C=C1CC[C@@H]1[C@@H]2CC[C@@]2(C)[C@H]1CC[C@]2(O)C(=O)CO` gave an inhibition of -7.54%.
The inhibition of `CCCCC/C=C\C=C\CCCCCCCCC(=O)O` is reported as -6.76%.
`COc1ccc(C(C)(C)C)cc1CN[C@H]1C2CCN(CC2)[C@H]1C(c1ccccc1)c1ccccc1` gave an inhibition of 5.11%.
`COC(=O)C1=C(C)NC(C)=C([N+](=O)[O-])[C@@H]1c1ccccc1C(F)(F)F` (racemic) has an inhibition of -21%.
For `c1ccc(CNc2ncnc3[nH]cnc23)cc1`, the inhibition was 0.77%.
The inhibition of `CCCCCC(C)N` (stereo not shown) is reported as 0.44%.
The inhibition of `Cc1oc(=O)oc1COC(=O)C1=C([C@H]2CCCO2)S[C@@H]2[C@@H]([C@@H](C)O)C(=O)N12` is reported as -0.58%.
With `COC(=O)C1=C(C)NC(C)=C(C(=O)OCC(C)C)C1c1ccccc1[N+](=O)[O-]` (stereo not shown) the inhibition was 1.45%.
`COc1c2occc2c(OC)c2c(=O)cc(C)oc12` has an inhibition of 4.54%.

Series 6
Cell line: HEK-293T/ACE2
Tested at: concentration not given
Time: 16 (unit not given)
Baseline: vehicle
With `COc1c(N2C[C@@H]3CCCN[C@@H]3C2)c(F)cc2c(=O)c(C(=O)O)cn(C3CC3)c12` the viability was 101%.
`Cc1cc(C(C)(C)C)c(O)c(C)c1CC1=NCCN1` has a viability of 101%.
With `CCOC(=O)CC(SP(=S)(OC)OC)C(=O)OCC` (stereo not shown) the viability was 99.5%.
With `CC(C)Cn1cnc2c(N)nc3ccccc3c21` the viability was 88.4%.

A few entries again (series 1):
For `CACGCTTC`, the E-score was 0.187.
The E-score of `CACACTTA` is reported as -0.197.
For `TGATCCCA`, the E-score was -0.169.
For `CCCAACCG`, the E-score was -0.0202.
For `CGGCTCTA`, the E-score was 0.244.
`GGCGGATA` gave an E-score of 0.232.
For `CTGCACAA`, the E-score was -0.0628.
`CATATACG` gave an E-score of 0.0276.
